Measured values gathered from unrelated publications.
Every numbered part comes from another study and shows a few of its results, in no order.

Block 1
Target: RNA binding protein fox-1 homolog 2, RRM domain, GST-SBP tag (RBFOX2, Homo sapiens, UniProt O43251-10, residues 100-194)
Technique: RNA Bind-n-Seq
Molecule type: RNA
Medium: in vitro
Concentration: 365 nM
Setting: natural RNA segment, single round, ends assumed
Baseline: no-protein control
Direction: higher = stronger binding
Residues (chain): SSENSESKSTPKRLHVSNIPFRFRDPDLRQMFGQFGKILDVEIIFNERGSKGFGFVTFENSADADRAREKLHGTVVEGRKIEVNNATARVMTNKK
`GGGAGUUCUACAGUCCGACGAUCUGCCAUCUCCCUGCCAGCACCCCUUGAGUGUCCACAUCCAGGGACCGAGCCUGGCACAGCUCCCCUAUCCAUUGCCAGAUGAAUGUAUAAUGCUAGAUGAAGCUGUGAACUGGAAUUCUCGGGUGCCAA` — result for “RBNS enrichment (R)”: 0.387.
`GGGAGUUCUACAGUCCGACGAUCGCCUCUUGUAGUGAUGAUGGGGAGGUAGCCUUCUGGGAGUAUCACCAGCCUGCAGGUCUCUGAGCUAUAGCUUGACUUGGGAGUCUUGAUUCCCACAGAAAACGUCCUAAUGGAAUUCUCGGGUGCCAA` — result for “RBNS enrichment (R)”: 0.705.
`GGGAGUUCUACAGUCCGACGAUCAGAGUAGAGUCACUGGAACACUAAUGAGGAAACUGCACUGUUUUAUUUUAAUUCAGUUGUUAGUGUGUCUUAGUGUGUGCAAUUUUUUUUCUUACUAAUAUCCAUGGUUUUGGAAUUCUCGGGUGCCAA`: “RBNS enrichment (R)” 0.412.
`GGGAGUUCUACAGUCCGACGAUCAUAUCAUGGUGCCUACUGGAAGGGAAUGUAGAUGCUAUGCAUUUUGGAAAUAAUCUGCAUCUGUUAAACCUGCAGAAGUUUUUUAAUGCCACUUUAACACUAAUGCACUGUGGAAUUCUCGGGUGCCAA`: “RBNS enrichment (R)” 0.661.
`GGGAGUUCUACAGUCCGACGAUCAUACAGUGUGAUUUCAUGCUUUUGAACAUCUUUUUUUCAUUGAAACAAAUUCAAGUUCUUGGCUUAAAAAAAAAUUAGUGAUGUCUUUAAAAAAUAUUCUGUUACACUACUGGAAUUCUCGGGUGCCAA` — result for “RBNS enrichment (R)”: 0.808.
`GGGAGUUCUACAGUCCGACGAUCAGCUCCACCUGCAUCCUCCAGGAGACCUCCCUGUGAUGUUGACUCAGGACCCCGCCUCUGUCCUCACUGUGCCAGGCCAUAGCCAGAGGCCACCCUGUAGUACAGGGAUGUGGAAUUCUCGGGUGCCAA`: “RBNS enrichment (R)” 0.418.
`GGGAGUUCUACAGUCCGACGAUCGCCUAUAAGGCAGUGUUGGUCCCCUUCUAAUAUUGGCCUCAUAAAGGGGUUCCACUGUACUUUCCGCAUAUUACUGUGUUGUUGUUUUCCUUUGUGGAUAUAUAAGCAAAUGGAAUUCUCGGGUGCCAA` — result for “RBNS enrichment (R)”: 0.508.
Under “RBNS enrichment (R)”, `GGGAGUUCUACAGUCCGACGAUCUCAGGCAAGUUUUUCCUCUGUUUUUAAUAUAUAACUAUAAUAUAUAUGAAUAGAUAAAUAUAACUAAUGUGCGUGAGAAUGGGCCUGGCACACCUGGGGUGCUCGGGGGUUGGAAUUCUCGGGUGCCAA` is recorded as 0.809.
Under “RBNS enrichment (R)”, `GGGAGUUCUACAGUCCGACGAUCUGAAGAGCUUCCCUCUUCCUACUGCAGCAUGAACUGCAAGCUCCCCUCAGCCCAUCUUGCUCCCUCUUCAGCCCGCUGAGGAGCUUUCUUGGGCUGCCCCCAUCUCUCCCUGGAAUUCUCGGGUGCCAA` is recorded as 1.75.
`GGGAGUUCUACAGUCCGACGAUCAUAAAUCAGAACUAGCAGAAGUAGCAGAGUGAUGGGAGCAAAAUAGGCACUGAAUUCGUCAACUCUUUUUUGUGAGCCUACUUGUGAAUAUUACCUCAGAUACCUGUUGUUGGAAUUCUCGGGUGCCAA` — result for “RBNS enrichment (R)”: 0.258.
`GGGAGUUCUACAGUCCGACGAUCAACCAAGCCCACCCUUCCACAUUGGGCCUGGCUGCUCUAUUCUGUACCAAGUACUGGAGAAAAAGCAUCAAGUUCUUAGCCCUUGUAGCUUCUACCCUAGUUUCCCAUCCUGGAAUUCUCGGGUGCCAA` — result for “RBNS enrichment (R)”: 0.279.
For `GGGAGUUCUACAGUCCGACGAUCGGUGCUGGUGGACCUGCGGCCCAAGGGCCUGGAUGGAGCUCGGGCUGAGCGGGUGCUAGAGCUUGUAUCCAUCACUGCCAACAAGAACACCUGUCCUGGAGACCGAAGUGUGGAAUUCUCGGGUGCCAA`, “RBNS enrichment (R)” read 0.636.

Block 2
Target: Ras GTPase-activating protein-binding protein 1, full length (G3BP1, Homo sapiens, UniProt Q13283)
Sequence of UniProt Q13283 (whole entry, looked up): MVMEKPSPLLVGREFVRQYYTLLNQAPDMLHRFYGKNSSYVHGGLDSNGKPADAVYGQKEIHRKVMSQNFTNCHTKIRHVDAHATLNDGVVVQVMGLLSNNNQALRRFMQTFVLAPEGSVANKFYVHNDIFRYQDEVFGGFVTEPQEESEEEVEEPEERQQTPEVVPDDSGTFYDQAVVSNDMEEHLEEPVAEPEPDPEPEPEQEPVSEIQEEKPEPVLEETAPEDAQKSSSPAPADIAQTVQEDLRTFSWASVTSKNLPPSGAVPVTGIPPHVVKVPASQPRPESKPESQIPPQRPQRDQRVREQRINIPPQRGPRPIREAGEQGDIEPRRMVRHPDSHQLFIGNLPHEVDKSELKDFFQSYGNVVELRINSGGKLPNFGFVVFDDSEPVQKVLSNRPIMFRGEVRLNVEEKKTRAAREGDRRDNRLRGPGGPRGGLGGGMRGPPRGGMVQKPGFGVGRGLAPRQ
Technique: RNA Bind-n-Seq
Molecule type: RNA
Medium: in vitro
Concentration: 200 nM
Setting: whole 134-nt RNA, ends assumed
Together with: 150 mM KCl
Baseline: input library
Direction: higher = stronger binding
`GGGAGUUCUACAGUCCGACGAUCAAGUCCUGUGCUACACAUCGUAUGUACCGAAUCGGGUGGGUUUUUUUGGGUUUGGGAAAGUAUUAUGUUACGCCGUUCGGAUCUGCACUUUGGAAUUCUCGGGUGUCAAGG` has a log2 enrichment of 0.101.
`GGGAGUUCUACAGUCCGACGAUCUAACUUUAGAGGAGGAUCUGAUGGAUAUGGCAGUGGACGUGGAUUUGGGGAUGGCGAUAAUGGGUAUGGAGGAGGACCUGGAGGUGGCAAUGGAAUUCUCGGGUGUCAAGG` has a log2 enrichment of 0.321.
For `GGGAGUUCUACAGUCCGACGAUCUGGCCCAGGUGGCAUGCGGGGAGGAAGAGGUGGCCUCAUGGAUCGUGGUGGUCCCGGUGGAAUGUUCAGAGGUGGCCGUGGUGGAGACAGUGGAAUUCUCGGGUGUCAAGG`, the log2 enrichment was 0.393.
`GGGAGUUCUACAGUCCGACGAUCUCCUAGUCCUAGGAAAACUCCAGUUGCCAGUGAUCAACGCCGUAGGUCCUGCAAAACAGCCCCUGCUUCCAGCAGCAAAUCUCAGACAGAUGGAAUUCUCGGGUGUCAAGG` gave a log2 enrichment of 0.151.
`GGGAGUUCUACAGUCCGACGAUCAAGUCCUGUGCUACACAUCGUAUGUACCGAAUCGGGAAAAAGGGUUUGGGAAAGGGAAAGUAUUAUGUUACGCCGUUCGGAUCUGCACUUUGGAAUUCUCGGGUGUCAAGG` gave a log2 enrichment of -0.0187.
`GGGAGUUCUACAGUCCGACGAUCUCUGCUAAAGAGAAAGGAAAAUUUGAAGAUAUGGCAAAAGCGGACAAGGCCCGUUAUGAAAGAGAAAUGAAAACCUAUAUCCCUCCCAAAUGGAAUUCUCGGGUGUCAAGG` gave a log2 enrichment of 0.593.
The log2 enrichment of `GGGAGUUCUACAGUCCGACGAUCUCAAGUCCUGUGCUACACAUCGUAUGUACCGAAUCGGGCCCGGGCCCGGCCCGGGAAAGUAUUAUGUUACGCCGUUCGGAUCUGCACUUCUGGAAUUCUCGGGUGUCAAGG` is reported as -1.19.
`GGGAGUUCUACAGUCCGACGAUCUGGCCCUGGUGGCAUGCGGGGAGGAAGAGGUGGCCUCAUGGAUCGUGGUGGUCCCGGUGGAAAGUUCAGAGGUGGCCGUGGUGGAGACAGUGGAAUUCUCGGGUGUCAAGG` gave a log2 enrichment of 0.204.
`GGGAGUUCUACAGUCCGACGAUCAGUUCUAUCUCUGGGGUGACUGCCGCAUAUAACCGAGAACAGCUGUGGCUGGCCAAUGAAGGCCUGAUCACCAGGCUGCAGGCUCGCUGCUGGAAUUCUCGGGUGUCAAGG` has a log2 enrichment of -0.708.
`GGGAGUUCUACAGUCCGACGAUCAAGUCCUGUGCUACACAUCGUAUGUACCGAAUCGGGGAAAGGGGUGGGGAAAGGGGAAAGUAUUAUGUUACGCCGUUCGGAUCUGCACUUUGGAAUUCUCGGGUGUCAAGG` has a log2 enrichment of 0.457.

Block 3
Target: Sal-like protein 4, full length isoform B (SALL4, Homo sapiens, UniProt Q9UJQ4-2, residues 1-616)
Technique: universal PBM
Molecule type: double-stranded DNA, one strand shown
Medium: in vitro
Concentration: not given
Setting: 8-mer, flanks averaged, mean of replicates
Direction: higher = stronger binding
Residues (chain): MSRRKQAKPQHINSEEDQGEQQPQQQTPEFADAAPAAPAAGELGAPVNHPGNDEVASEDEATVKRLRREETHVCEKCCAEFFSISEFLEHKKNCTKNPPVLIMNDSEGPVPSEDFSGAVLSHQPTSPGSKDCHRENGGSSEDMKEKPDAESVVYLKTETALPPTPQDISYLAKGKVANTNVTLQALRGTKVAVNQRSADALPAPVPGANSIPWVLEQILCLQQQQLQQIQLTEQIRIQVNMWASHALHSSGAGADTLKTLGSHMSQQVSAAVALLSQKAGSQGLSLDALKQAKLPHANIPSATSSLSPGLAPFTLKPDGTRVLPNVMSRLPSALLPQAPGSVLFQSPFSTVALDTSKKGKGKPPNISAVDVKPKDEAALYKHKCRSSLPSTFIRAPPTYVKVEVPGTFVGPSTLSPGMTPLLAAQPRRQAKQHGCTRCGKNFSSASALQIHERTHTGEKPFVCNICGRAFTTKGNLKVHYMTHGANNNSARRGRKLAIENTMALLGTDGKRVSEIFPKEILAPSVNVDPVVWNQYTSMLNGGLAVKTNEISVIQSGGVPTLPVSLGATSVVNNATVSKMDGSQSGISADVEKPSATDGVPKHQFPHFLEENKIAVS
`GATACGGA` gave an E-score of 0.0888.
For `ATCAGCCG`, the E-score was -0.243.
`CAGAATCC` gave an E-score of -0.1.
With `ATTAATGC` the E-score was 0.294.
With `ATCAAAGG` the E-score was 0.109.
For `GCTTGCAC`, the E-score was -0.198.
With `AACTGTAG` the E-score was -0.0306.
For `AGTTCGAC`, the E-score was -0.125.
`AGACGTTG` gave an E-score of -0.0469.
With `CTATTAGC` the E-score was 0.188.
`CGAAGCAA` gave an E-score of 0.115.
With `AGGTGACC` the E-score was -0.212.
For `GAAATAGA`, the E-score was 0.22.
The E-score of `GGACACAA` is reported as 0.0807.
`AGTCACAT` gave an E-score of 0.159.
`TGGTTACA` gave an E-score of 0.0606.
`CAGAACGA` gave an E-score of 0.0498.
For `ACTCTAAT`, the E-score was 0.201.
With `GCGGGTGA` the E-score was -0.26.
For `AACGATGT`, the E-score was 0.133.
With `ATGGGGCG` the E-score was -0.137.
`GGTAAATA` has an E-score of 0.234.
For `ATGCAGCA`, the E-score was -0.0647.
The E-score of `CTATCGTA` is reported as 0.208.
`CCGCGGGA` gave an E-score of -0.25.

Block 4
Target: Interferon regulatory factor 7, full length, phosphomimetic (IRF7, Homo sapiens, UniProt Q92985, residues 1-503, S471D/S472D/S475D/S476D/S477D/S483D/S484D/S487D)
Technique: protein-binding microarray
Molecule type: double-stranded DNA, one strand shown
Medium: in vitro
Concentration: 2200 nM top
Setting: 60-bp whole probe
Together with: salmon DNA 0.4 mg/ml
Baseline: random background probes
Direction: higher = stronger binding
Constant ends, left off below: GCCTAGCAC … GTCTTGATTCGCTTGACGCTGCTG
Construct (chain): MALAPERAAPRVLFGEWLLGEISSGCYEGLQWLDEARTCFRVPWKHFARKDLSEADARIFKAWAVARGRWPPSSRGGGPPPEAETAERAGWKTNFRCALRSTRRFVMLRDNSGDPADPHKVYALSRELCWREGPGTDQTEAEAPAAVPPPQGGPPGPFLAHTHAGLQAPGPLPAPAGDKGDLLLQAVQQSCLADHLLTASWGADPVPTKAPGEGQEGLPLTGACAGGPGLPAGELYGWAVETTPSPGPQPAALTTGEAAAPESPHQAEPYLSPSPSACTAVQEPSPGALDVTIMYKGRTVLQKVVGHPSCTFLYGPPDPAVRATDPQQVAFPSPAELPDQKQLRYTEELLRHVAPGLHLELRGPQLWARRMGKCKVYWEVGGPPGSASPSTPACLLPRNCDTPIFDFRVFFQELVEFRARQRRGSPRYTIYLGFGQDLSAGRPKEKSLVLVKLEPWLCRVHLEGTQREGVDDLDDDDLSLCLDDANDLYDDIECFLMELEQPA
For `TTAGGTATCGGTTTCGGTCAGTGCTAG`, “fitted relative affinity” read 4.56 z-score.
For `GACGGTATCGGGTATCTGGACGTGCTA`, “fitted relative affinity” read 0.0505 z-score.
For `GACGGTTTCTTACTGCTGACGTGCTAG`, “fitted relative affinity” read 1.66 z-score.
For `TCACATTTCCCTTGCCGACTGTGCTAG`, “fitted relative affinity” read 2.82 z-score.
`GACCGACTGGGGACTGGGGACGTGCTA` — result for “fitted relative affinity”: -0.509 z-score.
`TTAAGTCTCCTTTTCCTTTAGTGCTAG` — result for “fitted relative affinity”: 2.26 z-score.
Under “fitted relative affinity”, `GGCGGTTTCGGTTTCGGGACGTGCTAG` is recorded as 15.1 z-score.
`TTAGACATCAGTTTCGATTAGTGCTAG`: “fitted relative affinity” 5.42 z-score.
For `TCACATACTAGTTTCCAACTGTGCTAG`, “fitted relative affinity” read 2.19 z-score.
`GACGGTCTCGGTCTAGGGACGTGCTAG`: “fitted relative affinity” -0.282 z-score.
`TACGGACTGGGTCTCGGGACGTGCTAG` — result for “fitted relative affinity”: -0.68 z-score.
`AACGGTATCGGGACTGGGGACGTGCTA`: “fitted relative affinity” -0.29 z-score.
For `GAATGTAACTCCTATCCAAGTGTGCTA`, “fitted relative affinity” read 0.892 z-score.
`GACGATTTCGGGACCGGAGACGTGCTA` — result for “fitted relative affinity”: 1.35 z-score.
Under “fitted relative affinity”, `TTATGTATCGGTCTCGGTTAGTGCTAG` is recorded as 1.45 z-score.
`GACGATATCCTTATCCTGACGTGCTAG` — result for “fitted relative affinity”: 1.09 z-score.
`GACGAATTGGGGTATCGAGACGTGCTA`: “fitted relative affinity” 0.408 z-score.
